Published values gathered from unrelated publications.
Numbered parts are unrelated; each lists some results of a single study. Positions count from the first letter of the parent shown.

Block 1 — target: CCND2, cyclin fold, Cln2 fusion (human); method: yeast growth competition, sequencing; matrix: yeast; setting: weak parent motif; baseline: not given; reading: higher = stronger binding
Starting sequence: PKMYT1 docking peptide (human); SFEPRNLLSLFED
`SFEPRNLSSLFED [L8S]`: “normalised enrichment score” -0.117.
Under “normalised enrichment score”, `SFEPRNLLSLFRD [E12R]` is recorded as 0.0806.
For `SFEPSNLLSLFED [R5S]`, “normalised enrichment score” read 0.335.
For `SFPPRNLLSLFED [E3P]`, “normalised enrichment score” read 0.453.

Block 2 — method: RNA Bind-n-Seq; molecule type: RNA; matrix: in vitro; concentration: 200 nM; setting: whole 134-nt RNA, ends assumed; with: 150 mM LiCl; baseline: input library; reading: higher = stronger binding; library: 7-deaza-guanosine replaces G
Target: Fragile X messenger ribonucleoprotein 1, C-terminal low-complexity region (Fmr1, Mus musculus, UniProt P35922)
The log2 enrichment of `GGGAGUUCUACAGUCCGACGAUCUCCUCAAGUCCUGUGCUACACAUCGUAUGUACCGAAUCGGUGGUGGUGGGGAAAGUAUUAUGUUACGCCGUUCGGAUCUGCACUUCCAGCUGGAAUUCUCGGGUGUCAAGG` is reported as 0.398.
`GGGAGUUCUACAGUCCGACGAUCCCUGUGCUACACAUCGUAUGUACCGAAUCGGUUUUUUGGGUUUUUUGGGGUUUUUUGGGGAAAGUAUUAUGUUACGCCGUUCGGAUCUGCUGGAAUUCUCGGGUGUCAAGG` has a log2 enrichment of -1.17.
`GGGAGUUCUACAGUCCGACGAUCCUGUGCUACACAUCGUAUGUACCGAAUCGGGGAAAAAAAGGAAAAAAAGGGAAAAAAAGGGGAAAGUAUUAUGUUACGCCGUUCGGAUCUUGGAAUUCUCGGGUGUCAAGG` has a log2 enrichment of 0.523.
With `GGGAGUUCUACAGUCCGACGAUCAGUCCUGUGCUACACAUCGUAUGUACCGAAUCGGGUUUUUUUGGGAAAAAGGGUGGGAAAGUAUUAUGUUACGCCGUUCGGAUCUGCACUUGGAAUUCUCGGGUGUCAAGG` the log2 enrichment was -2.54.
`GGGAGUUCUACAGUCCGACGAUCGUCCUGUGCUACACAUCGUAUGUACCGAAUCGGGGUUUUUGGUUUUUGGGUUUUUGGGGAAAGUAUUAUGUUACGCCGUUCGGAUCUGCAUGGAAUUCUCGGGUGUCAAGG` has a log2 enrichment of -1.21.

Block 3 — target: CREBRF, bZIP domain (human); method: DHFR protein complementation; matrix: yeast; baseline: wild-type JUN-FOS pair; reading: higher = stronger binding
Setting: single substitutions, most at no-binding floor
Starting sequence: JUN, bZIP domain (human); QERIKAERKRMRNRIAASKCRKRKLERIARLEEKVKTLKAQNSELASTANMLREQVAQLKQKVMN; partner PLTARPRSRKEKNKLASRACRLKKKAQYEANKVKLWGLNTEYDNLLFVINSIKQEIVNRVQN
The binding fitness of `T37S` is reported as -1.52 natural log.
For `I28W`, the binding fitness was -1.27 natural log.
`S47M` gave a binding fitness of -1.45 natural log.
`S47W` has a binding fitness of -1.49 natural log.
With `Q41A` the binding fitness was -1.42 natural log.
With `L38W` the binding fitness was -1.49 natural log.

Mixed results
For `PhoQ, residues 284 288 289 292 302 303 SVHLDV`, the fold induction was 3.09 (PhoP, residues 12 14 15 18 19 LHSVW (Escherichia coli, UniProt P23836); Sort-seq, refers to: YFP reporter; E. coli; PhoQ-PhoP variant library, with: 10 µM Mg2+; baseline: high Mg2+ state, higher = stronger signaling).

Excerpt of the above (block 2):
The log2 enrichment of `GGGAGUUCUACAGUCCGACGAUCUCCUCAAGUCCUGUGCUACACAUCGUAUGUACCGAAUCGGUGGUGGUGGGGAAAGUAUUAUGUUACGCCGUUCGGAUCUGCACUUCCAGCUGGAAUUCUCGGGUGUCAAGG` is reported as 0.398.
